Experimental data collected from several papers.
A part holds a random share of what one study measured. Substitutions count along the parent as printed.

Sample 1 — technique: protein-binding microarray; molecule type: double-stranded DNA, one strand shown; sample: in vitro; tested at: 250 nM; notes: 60-bp whole probe; added: salmon DNA 0.4 mg/ml; relative to: random background probes; reading: higher = stronger binding; endpoint: log fluorescence; all sequences stand within: GCCTAGCAC … GTCTTGATTCGCTTGACGCTGCTG
Target: Interferon regulatory factor 5, full length, phosphomimetic (IRF5, Homo sapiens, UniProt Q13568-2, residues 1-514, K96S/S451D/S453D/S456D/S462D)
AACGGTCTCCTTTTCCTGACGTGCTAG: 0.33 z-score
GAGAATTTCCACTTTGACTTGTGCTAG: 0.78 z-score
CTTAGACTGTCCTGCTGGAGGTGCTAG: -0.306 z-score
TTAGTACTGCTTCTCCTTTAGTGCTAG: 0.194 z-score
TTAGATTTCGGGTTTAGATTAGTGCTA: 4.97 z-score
CTAGGTATCCTTTTCCTTTAGTGCTAG: 0.568 z-score
GACGGTCTCCATTTCCTGACGTGCTAG: 0.0359 z-score
CTTCATGTTGCTCTCCGGGGGTGCTAG: 1.32 z-score

Sample 2 — technique: aptamer microarray, sandwich; molecule type: DNA with 2'F-ANA; sample: in vitro; tested at: 200 nM; added: Cy3 exosite-II aptamer, 400 nM; reading: higher = stronger binding; endpoint: mean fluorescence intensity; oligonucleotide: GGTTGGTGTGGTTGG
Target: Prothrombin, mature alpha-thrombin (F2, Homo sapiens, UniProt P00734)
Notes: whole 15-mer aptamer, many near background
2'F-ANA at 3 4 6 7 8 9 10 14 15: 196 a.u.
2'F-ANA at 1 5 6 7 9 12 13: 71 a.u.
2'F-ANA at 8 12: 1040 a.u.
2'F-ANA at 6 7 10 12 15: 215 a.u.
2'F-ANA at 1 5 7 12 13 14: 42.9 a.u.
2'F-ANA at 2 3 7 10 11 12 13: 445 a.u.
2'F-ANA at 4 5 7 10 12 13 14 15: 47.3 a.u.
2'F-ANA at 4 6 8 11 12: 466 a.u.

Sample 3 — Substitution: I105K; technique: DHFR PCA, deep sequencing; sample: yeast; relative to: wild-type fitted maximum; reading: higher = stronger binding; endpoint: relative binding score
Target: ABI1, truncated, D143A, DHFR fusion (Arabidopsis thaliana)
Notes: methotrexate growth selection, single substitutions
Parent: PYL1, truncated, DHFR fusion (Arabidopsis thaliana); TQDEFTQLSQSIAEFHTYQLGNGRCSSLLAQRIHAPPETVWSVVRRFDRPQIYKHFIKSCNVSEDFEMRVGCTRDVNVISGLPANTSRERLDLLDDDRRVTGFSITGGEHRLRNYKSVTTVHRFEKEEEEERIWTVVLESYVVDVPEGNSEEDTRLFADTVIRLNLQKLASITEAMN
added: (+)-ABA 710 µM: -1.31%
added: (+)-ABA 2500 µM: 23.1%
added: (+)-ABA 0 µM: 5.31%
added: (+)-ABA 200 µM: 2.28%
added: (+)-ABA 0.0091 µM: 1.95%
added: (+)-ABA 0.032 µM: 1.1%

Other studies, line by line
Parent: PafA, mature enzyme, eGFP fusion (Elizabethkingia meningoseptica, UniProt Q9KJX5); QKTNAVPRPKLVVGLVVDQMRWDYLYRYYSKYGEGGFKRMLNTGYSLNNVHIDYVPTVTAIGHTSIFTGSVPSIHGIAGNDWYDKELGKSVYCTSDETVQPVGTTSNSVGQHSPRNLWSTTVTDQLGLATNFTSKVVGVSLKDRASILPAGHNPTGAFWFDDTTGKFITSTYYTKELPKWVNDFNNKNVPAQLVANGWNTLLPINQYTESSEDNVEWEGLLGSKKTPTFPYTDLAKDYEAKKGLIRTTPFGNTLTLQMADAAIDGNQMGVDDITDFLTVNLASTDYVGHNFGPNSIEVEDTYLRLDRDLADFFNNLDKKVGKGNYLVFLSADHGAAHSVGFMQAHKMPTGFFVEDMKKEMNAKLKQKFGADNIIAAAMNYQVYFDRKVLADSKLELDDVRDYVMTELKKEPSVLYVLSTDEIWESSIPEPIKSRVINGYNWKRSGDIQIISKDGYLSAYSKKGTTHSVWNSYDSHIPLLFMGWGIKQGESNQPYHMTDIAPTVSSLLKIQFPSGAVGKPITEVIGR
V71G  phosphate dissociation constant (inorganic phosphate, free oxyanion; microfluidic competitive inhibition; in vitro, cell-free expressed; not given, derived from inhibition constants, unchanged parent 615000 nM; lower = stronger binding): 346 µM

For quick reference, copied from above (sample 3):
added: (+)-ABA 710 µM: -1.31%
added: (+)-ABA 2500 µM: 23.1%
added: (+)-ABA 0.032 µM: 1.1%
added: (+)-ABA 0.0091 µM: 1.95%
